Results collected from several papers.
Every numbered part comes from another study and shows a few of its results, in no order.

Set 1 — method: protein-binding microarray; molecule type: double-stranded DNA, one strand shown; sample: in vitro; concentration: 250 nM; notes: 60-bp whole probe; with: salmon DNA 0.4 mg/ml; reference: random background probes; direction: higher = stronger binding; shared flanks, not repeated: GCCTAGCAC … GTCTTGATTCGCTTGACGCTGCTG
Target: Interferon regulatory factor 7, full length, phosphomimetic (IRF7, Homo sapiens, UniProt Q92985, residues 1-503, S101K/S471D/S472D/S475D/S476D/S477D/S483D/S484D/S487D)
Construct (chain): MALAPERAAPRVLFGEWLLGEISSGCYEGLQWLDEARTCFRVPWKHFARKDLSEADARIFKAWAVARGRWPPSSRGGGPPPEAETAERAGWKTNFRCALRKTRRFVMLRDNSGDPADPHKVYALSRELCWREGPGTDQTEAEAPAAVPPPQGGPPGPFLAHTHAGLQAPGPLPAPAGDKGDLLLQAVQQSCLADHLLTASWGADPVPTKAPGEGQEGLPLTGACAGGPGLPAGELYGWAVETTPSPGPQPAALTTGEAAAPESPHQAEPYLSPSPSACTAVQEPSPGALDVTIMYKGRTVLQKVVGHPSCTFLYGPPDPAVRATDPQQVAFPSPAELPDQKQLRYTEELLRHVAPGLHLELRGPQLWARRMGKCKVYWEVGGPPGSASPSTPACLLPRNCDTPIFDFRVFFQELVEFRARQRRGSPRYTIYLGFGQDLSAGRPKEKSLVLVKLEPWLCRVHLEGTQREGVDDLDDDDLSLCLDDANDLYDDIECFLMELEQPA
Strand	log fluorescence [z-score]
GGAGGCTCTTGCTACTGAAGGTGCTAG	-1.4
TAACTTTCCAATTGTCCTTTCGTGCTA	2.17
CTAGGTCTCGGACTGGGTTAGTGCTAG	0.924
GACAGACTGGACACTGGGGACGTGCTA	-0.723
GAGGAACTGGGGTATCGAGACGTGCTA	-0.494
CCACATATGCTTTTTAGAAAGTGCTAG	0.533
GACAGTTTCGACACTGGGGACGTGCTA	3.43
AGGCAGGCATAAAGGAAAAAGTGCTAG	-0.688
TTAGGACTGGAAACTGGGTTAGTGCTA	-0.0606
TTAGGGCTGGGGTATCGGTTAGTGCTA	-0.264
GGCGGACTGGACTATCGGGACGTGCTA	-0.721
TTAGGTATCGGGGATCGGTTAGTGCTA	0.0595
GACGGTATCGACCATCGGGACGTGCTA	-0.362
GACGACTTCAGACTGGAGACGTGCTAG	-0.081
TTCGGTCTCGGTATCGGTTAGTGCTAG	3.43
TTAGGTTCCGGTTTCGGGTAGTGCTAG	9.59
TATCCTTCCCCTCTAGGTTCGTGCTAG	1.51
TCAGTTTCTCCTTTGTAACTGTGCTAG	3.66
TTAGGTATTGGGTTTCGGTTAGTGCTA	5.66
TTGGGTATCCTTCTCCTTTAGTGCTAG	0.25
GGCGGACTGGGACTGGGGACGTGCTAG	-0.754
TTAGAACTGAGACTGAATTAGTGCTAG	0.174
TTAGGACAGGGGTATCGGTTAGTGCTA	0.43
GACGAATTCAGTATCGAGACGTGCTAG	0.372
GACGGCCTGCTTTTCCTGACGTGCTAG	-0.144

Set 2 — method: RNA Bind-n-Seq; molecule type: RNA; sample: in vitro; concentration: 1 µM; notes: whole 134-nt RNA, ends assumed; with: 150 mM KCl; reference: input library; direction: higher = stronger binding
Target: Ras GTPase-activating protein-binding protein 1, C-terminal RGG region (G3BP1, Homo sapiens, UniProt Q13283)
Chain of UniProt Q13283 (whole entry, looked up): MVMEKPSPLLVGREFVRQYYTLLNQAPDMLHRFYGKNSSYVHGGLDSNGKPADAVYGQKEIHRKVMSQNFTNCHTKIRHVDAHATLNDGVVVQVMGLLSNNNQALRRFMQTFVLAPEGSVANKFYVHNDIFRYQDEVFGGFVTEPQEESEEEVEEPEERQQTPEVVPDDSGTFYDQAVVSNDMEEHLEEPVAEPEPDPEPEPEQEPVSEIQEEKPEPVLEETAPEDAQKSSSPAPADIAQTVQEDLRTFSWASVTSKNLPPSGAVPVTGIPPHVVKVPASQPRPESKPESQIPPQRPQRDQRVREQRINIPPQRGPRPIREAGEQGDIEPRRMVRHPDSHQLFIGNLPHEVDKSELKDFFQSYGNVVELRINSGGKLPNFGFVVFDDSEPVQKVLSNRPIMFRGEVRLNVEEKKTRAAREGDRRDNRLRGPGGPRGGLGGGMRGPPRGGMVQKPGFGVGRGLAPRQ
Shared flanks, not repeated: GGGAGUUCUACAGUCCGACGAUC … UGGAAUUCUCGGGUGUCAAGG
Strand	log2 enrichment
CUCAAGUCCUGUGCUACACAUCGUAUGUACCGAAUCGGGUUGGUUGGGUUGGGGAAAGUAUUAUGUUACGCCGUUCGGAUCUGCACUUCC	0.271
ACCAUGCAGGUGGGCAUCUUUGGGAAGUGGGGUAAGGGGGGGAUAGGGAGGGGGGUAACACUUUGGGAACAGGUGGUCCCAGGUCGUUUC	-1.25
AGUCCUGUGCUACACAUCGUAUGUACCGAAUCGGAAAAAGGGGAAAAAGGGAAAAAGGAAAGUAUUAUGUUACGCCGUUCGGAUCUGCAC	-1.36
UGUGCUACACAUCGUAUGUACCGAAUCGGGCCCCCCCGGGGCCCCCCCGGGGCCCCCCCGGGAAAGUAUUAUGUUACGCCGUUCGGAUCU	-2.46
CAAGUCCUGUGCUACACAUCGUAUGUACCGAAUCGGGUGGGAAAAAAAGGGAGGGAAAGUAUUAUGUUACGCCGUUCGGAUCUGCACUUC	0.971
GUCCUGUGCUACACAUCGUAUGUACCGAAUCGGGUUUUUUUGGGUUUUUUUGGGAGGGAAAGUAUUAUGUUACGCCGUUCGGAUCUGCAC	-0.0766
UGGCCCUGGUGGCAUGCGGGGAGGAAGAGGUGGCCUCAUGGAUCGUGAUGGUCCCGGUGGAAUGUUCAGAGGUGGCCGUGGUGGAGACAG	2.25
UCCUGUGCUACACAUCGUAUGUACCGAAUCGGGUUUUUUUGGGAAAGGGUUUUUUUGGGAAAGUAUUAUGUUACGCCGUUCGGAUCUGCA	-0.38
UGGGAGGUGGAUUUUGUUUAUCUUUUUAGCUCAUUUCCAGGGGUGGGAAUUUUUUUUUAAUAUGUGUCAUGAAUAAAGUUGUUUUUGAAA	3.24
CAAGUCCUGUGCUACACAUCGUAUGUACCGAAUCGGGGUUUGGGGUGGGGUGGGGAAAGUAUUAUGUUACGCCGUUCGGAUCUGCACUUC	2.39
CGGCAGUAGCAGCAGCGCCGGGUCCCGUGCGGAGGUGCUCCUCGCAGAGUUGUUUCUCGAGCAGCGGCAGUUCUCACUACAGCGCCAGGA	-1.38
UCCUGUGCUACACAUCGUAUGUACCGAAUCGGUUUUUUGGGGUUUUUUGGUUUUUUGGGAAAGUAUUAUGUUACGCCGUUCGGAUCUGCA	-0.725
AGUCCUGUGCUACACAUCGUAUGUACCGAAUCGGGCCCCCGGGCCCCCGGCCCCCGGAAAGUAUUAUGUUACGCCGUUCGGAUCUGCACU	-1.52
UGGCCCUGGUGGCAUGCGGGGAGGAAGAGGUGGCCUCAUGGAUCGUGGUGGUCCCGGUGUAAUGUUCAGAGGUGGCCGUGGUGGAGACAG	1.6

Set 3 — method: RNA Bind-n-Seq; molecule type: RNA; sample: in vitro; concentration: 365 nM; reference: no-protein control; direction: higher = stronger binding
Target: RNA binding protein fox-1 homolog 2, RRM domain, GST-SBP tag (RBFOX2, Homo sapiens, UniProt O43251-10, residues 100-194)
Notes: natural RNA segment, single round, ends assumed
Shared flanks, not repeated: GGGAGUUCUACAGUCCGACGAUC … UGGAAUUCUCGGGUGCCAA
Construct (chain): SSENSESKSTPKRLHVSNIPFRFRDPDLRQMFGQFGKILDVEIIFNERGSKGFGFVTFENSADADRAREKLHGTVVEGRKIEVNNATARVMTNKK
Strand	RBNS enrichment (R)
GUCUGACCUUCCCACUGAGAAACACAUGUUCAUUUAUGUGAUCAUGUAUAGAUUUCAGAAUAUAAGAUAUGACUGUACAUAAUUGUAAUAAAUACGAGUUGCCAUAUUUA	0.748
UUCCUCCUGCCUCAGUCUCCCAAGUGCUACAAUGACGGGCCUUUGCCACUAUGCUUGGCUGGCCUUGCUCUUGCCACAAAAGCUCGUUGGAUGGAAAAAGCUGAAGCAAG	0.474
CGUGGGCACUGCUGAGGAAUGAUCCUAGUGGUAGGUCAGAAGAAGAUGCUGUGAACACCAGGACUUUAAUCUUAUGCUUAAAAUGCCAGAUGUUGUUCGGGGGACAACUU	0.679
UUUGUAAAACUGCUAAGCCAUUCUCAUGCACAUGGGUGAAUGACAUUUCCUAGGAACGGUCUCUGACUCCUGGACAACUACUCCUGUAUCGGCUCUGGCUCCCCGGAACC	0.728
UGGAUGUGGCUGCCCAGGAAAAGACUUAACUGUGAAAAAGUACUGAGAACCCACCUGACCCAGGCUUGCCCCAAGCAGAGGCUAGAGAAGAGGCUCCUCUUCUCAGUGUU	0.351
AGUGGGAAAUACAUUGUGCCUUUCUCUAGAUGUGAUACGUUAUACCAAAAUCUUUGUAGUGUGCAGAGCGGUGGUUUGAGACUAAAUACAGGCUUAGAACUUGCAGAGUG	0.444
UUUGGUUUCCAAGCCAAGGGAAAAGCUGAAGACAUGAGUAAUGAUCUUGCUUCAUGAGAUUGUACCUCUUAAGUGGCUGCGGACCUGGCUAAACUGUGGGUGGCAGUGGG	0.395
CUUCUCCCUCCAGACCUUCCUCUGACCCUUGCUGAACUGGGGUCCCUUUGUGAGUGUCUCAGUCUAGAGGUACCUCCCUCCCUGGGGGGUCUCAGCUCCUGGAGUCGCAG	0.39
AGAAGUAGCUACGUUCAACAGAACAUCCAAAGACUCAACAGCAACAAAAUGGAGAGCAUACUUACAGACUCCUGUGCGAUAGCUACUUUUAAAUACAUUUCAAUAAUUUU	0.465
CCAUGUUCCUAGACAAAGUCCUAAGCUGUUUGGAAGUCUGUGAGCAUUUUCAGUAUAUGAGGAGCUGAGAAAGCGCUGCCUGUCUGGUCCUUCAUUUGGCCAGCUAACAU	0.754
GCAUGCAGAGGUCUUCAGUCUUGCUUAUUCUUCUCCUGGGCUUCUUGACACAGGGGCAGAAGAAACCCCAGAUGUCCCAGAUGUCCCAGAACAUCAGCCCAAAAGACAGA	8.41
AAGAAUGUCGCCAAGGAAGAAACCUCACGCCAUGCUGUAGUGUUUCCUGUAAUCACACGAGCACAUUUAUAUAUGCAGUUUCCCAUGGAUAGGCGUGUGACCCUGGUUGA	0.295

Set 4 — method: aptamer microarray, sandwich; molecule type: DNA with 2'F-ANA; sample: in vitro; concentration: 200 nM; with: Cy3 exosite-II aptamer, 400 nM; direction: higher = stronger binding; strand: GGTTGGTGTGGTTGG
Target: Prothrombin, mature alpha-thrombin (F2, Homo sapiens, UniProt P00734)
Notes: whole 15-mer aptamer, many near background
Modification	mean fluorescence intensity
2'F-ANA at 2 5 8 10 13 14 15	46.9 a.u.
2'F-ANA at 1 2 3 6 9 10 11 12	69.5 a.u.
2'F-ANA at 1 3 4 6 8 12 13 14	83.5 a.u.
2'F-ANA at 1 3 6 7 10 14	59.3 a.u.
2'F-ANA at 2 3 5 6 7 12 14 15	53.8 a.u.
2'F-ANA at 1 2 3 5 11 15	53 a.u.
2'F-ANA at 5 6 7 8 9 10 11 13 14 15	52.6 a.u.
2'F-ANA at 1 2 4 7 8 9 13	99.4 a.u.
2'F-ANA at 2 5 8 9 10 11 12	47.9 a.u.
2'F-ANA at 2 3 4 6 7 9 11 14	236 a.u.
2'F-ANA at 2 3 4 5 6 9 10 11 15	52.6 a.u.
2'F-ANA at 5 6 7 8 9 10 11	49.2 a.u.
2'F-ANA at 3 7 8 9 10 12 15	662 a.u.
2'F-ANA at 1 4 5 6 8	58.8 a.u.
2'F-ANA at 4 5 7 8 12 13 14 15	57 a.u.
2'F-ANA at 2 4 8 11	313 a.u.
2'F-ANA at 1 4 5 7 9 15	96.6 a.u.
2'F-ANA at 2 3 5 6 8 9 12 13	141 a.u.
2'F-ANA at 1 3 4 5 9 10 12 13	48.3 a.u.

Some of these lines once more (set 2):
Strand	log2 enrichment
UCCUGUGCUACACAUCGUAUGUACCGAAUCGGUUUUUUGGGGUUUUUUGGUUUUUUGGGAAAGUAUUAUGUUACGCCGUUCGGAUCUGCA	-0.725
UGGCCCUGGUGGCAUGCGGGGAGGAAGAGGUGGCCUCAUGGAUCGUGAUGGUCCCGGUGGAAUGUUCAGAGGUGGCCGUGGUGGAGACAG	2.25
CUCAAGUCCUGUGCUACACAUCGUAUGUACCGAAUCGGGUUGGUUGGGUUGGGGAAAGUAUUAUGUUACGCCGUUCGGAUCUGCACUUCC	0.271
UGUGCUACACAUCGUAUGUACCGAAUCGGGCCCCCCCGGGGCCCCCCCGGGGCCCCCCCGGGAAAGUAUUAUGUUACGCCGUUCGGAUCU	-2.46
AGUCCUGUGCUACACAUCGUAUGUACCGAAUCGGGCCCCCGGGCCCCCGGCCCCCGGAAAGUAUUAUGUUACGCCGUUCGGAUCUGCACU	-1.52
